Published values from different studies.
Protocols differ between the studies behind these lines. ± gives the spread as reported.

Compound	target or system	test	test system	conditions	how to read	measurement	value
CC[C@H](C)[C@H](NC(=O)C[C@H](CCCCN)NC(=O)[C@H](CCCCN)NC(=O)C[C@@H](NC(=O)[C@@H](NC(=O)C[C@H](CCCCN)NC(=O)[C@H](Cc1ccccc1)NC(=O)C[C@H](CC(C)C)NC(=O)CN)[C@@H](C)CC)[C@@H](C)CC)C(=O)N[C@H](CC(=O)N[C@@H](CCCCN)C(=O)N[C@@H](CO)CC(=O)N[C@@H](Cc1ccccc1)C(N)=O)CC(C)C	NIH 3T3	cytotoxicity				IC50	20.2 µg/mL
CC(C)(O)C1CC[C@]2(C)C(CC=C3[C@@H]4C[C@](C)(CO)CC[C@]4(C(=O)O)CC[C@]32C)[C@@]1(C)CCC(=O)O (stereo partly drawn)	RAW264.7	NO release, inhibitor, Griess		LPS-stimulated		IC50	> 100 µM
CC#CC#C/C=C1/O[C@@]2(CC[C@@H](OC(C)=O)CO2)[C@H](O)[C@H]1O	RAW264.7	NO release, inhibitor, Griess		LPS-stimulated		IC50	> 50 µM
COc1cc(-c2cn(C)c(=O)c3cnccc23)c(OC)cc1CN(C)C	EOL1	cell growth or viability, ATP luminescence				IC50	6.6 µM
CC[C@H](C)[C@H](NC(=O)C[C@H](CCCCN)NC(=O)[C@H](Cc1ccccc1)NC(=O)C[C@H](CC(C)C)NC(=O)CN)C(=O)N[C@H](C(=O)N[C@@H](CCCCN)CC(=O)N[C@@H](CCCCN)C(=O)N[C@H](CC(=O)N[C@@H](C)C(=O)N[C@@H](CCCCN)CC(=O)N[C@@H](CO)C(=O)N[C@@H](Cc1ccccc1)C(N)=O)[C@@H](C)CC)[C@@H](C)CC	NIH 3T3	cytotoxicity				IC50	> 128 µg/mL
C=CC(=O)N1CCCC(n2c(=O)c3ncccc3n(Cc3ccc(Oc4ccccc4)cc3)c2=O)C1 (stereo not drawn)	OCI-Ly18	cell growth or viability, MTT		72 h		IC50	0.1 µM
CC(C)(C)c1nc(-c2cccc(NS(=O)(=O)c3c(F)cccc3F)c2F)c(-c2ccnc(N)n2)s1.Cc1[nH]c2ccccc2c1CCNCc1ccc(/C=C/C(=O)NO)cc1	C13	cell growth or viability, crystal violet				IC50	0.0076 µM
Cn1cncc1[C@@]1(N)c2ccc(C#N)c(c2)COc2cccc(c2)-c2cc(C#N)nc3ccc1cc23	T24/83	cell growth or viability, ATP luminescence		96 h		IC50	0.0155 µM
CC(C)CC(OC1OC(CO)C(O)C(OC(=O)C=Cc2ccccc2)C1O)(C(=O)OCc1ccc(OC2OC(CO)C(O)C(O)C2O)cc1)C(O)C(=O)OCc1ccc(OC2OC(CO)C(O)C(O)C2O)cc1 (stereo not drawn)	MDA-MB-231 breast cancer	cell viability, MTT	DMEM with 10% FBS	48 h		IC50	> 200 µM
Cn1ncc(-c2ccc3c(=O)[nH]nc(CN)c3c2)c1-c1c(F)c(Cl)cc(OC2CC2)c1C#N	NCI-H1651	cell viability, inhibitor, CellTiter-Glo		120 h, baseline-subtracted		IC50	0.05 µM
CC(=O)N[C@@H](CCCNC(=N)N)C(=O)N[C@@H](Cc1c[nH]c2ccccc12)C(=O)N[C@@H](CCCNC(=N)N)C(=O)N[C@@H](Cc1c[nH]c2ccccc12)C(=O)N[C@@H](CCCNC(=N)N)C(=O)N[C@@H](Cc1c[nH]c2ccccc12)C(N)=O	MCF-10A	cell viability		48 h, light irradiation 2.5 min		IC50	> 100 µM
CCOc1cncc(-c2ccc(NC(=O)C3(c4ccnc(NS(=O)(=O)C5CC5)n4)CCOCC3)nc2)n1	EOL1	cell proliferation, CellTiter-Glo		72 h		IC50	0.008 µM
CC(C)=CCc1c(OCC2OC2(C)C)ccc2ccc(=O)oc12 (stereo not drawn)	COLO 205	cell growth or viability, MTT		24 h		IC50	> 100 µM
Cc1cc(C(=O)N2CCNCCNCCNCC2)c(O)c(C(=O)N2CCNCCNCCNCC2)c1	WI-38	cell growth or viability, MTT		24 h		IC50	> 10000 µM
COc1ccc(C(O)=CC(=O)c2ccc(C(C)(C)C)cc2)cc1.[Ru+2].c1ccc(-c2ccccn2)nc1.c1ccc(-c2ccccn2)nc1	HL-60	cytotoxicity		dark		IC50	0.3 µM
CCNC(=S)NN=Cc1c2ccccc2cc2ccccc12.Cc1ccc(C(C)C)cc1.[Cl-].[Cl-].[Ru+2]	Caco-2	cytotoxicity, MTS		48 h		IC50	235 ± 6 µM
CC[C@H](C)[C@H](NC(=O)[C@H]1CCC[C@@H]1NC(=O)[C@H](CCCCN)NC(=O)[C@H](CCCCN)NC(=O)C[C@H](C)NC(=O)[C@H](CC(C)C)NC(=O)[C@H](CCCCN)NC(=O)[C@H]1CCC[C@@H]1NC(=O)[C@H](CC(C)C)NC(=O)CN)C(=O)N[C@@H](CCCCN)C(=O)N[C@@H](CO)CC(=O)N[C@@H](Cc1ccccc1)C(N)=O	NIH 3T3	cytotoxicity				IC50	355 µg/mL
CC(C)=CC1OC(C)(C)C2C=C3C(=O)C(Cl)=CC(O)C3C3C(O)C4OC4C(=O)C132 (stereo not drawn)	SU-DHL-1	cell growth or viability, MTS				IC50	1.4 µM
COc1cc(-c2cn(C)c(=O)c3cnccc23)cc(OC)c1Cn1ccnc1	MOLM-13	cell growth or viability, ATP luminescence				IC50	12.6 µM
CNS(=O)(=O)Nc1nccc(Cc2c(C)c3ccc(Oc4ncccc4F)cc3oc2=O)c1F	SK-MES-1	cell viability		7 days		IC50	0.0066 µM
CC[C@H](C)[C@H](NC(=O)[C@H](CC(=O)O)NC(=O)[C@H](Cc1ccccc1)NC(=O)[C@H]1CCC[C@@H]1NC(=O)CN)C(=O)N[C@H](CC(=O)N[C@@H](CCCCN)C(=O)N[C@@H](CCCCN)C(=O)N[C@H]1CCC[C@@H]1C(=O)N[C@@H](C)C(=O)N[C@@H](CCCCN)C(=O)N[C@@H](CO)C(=O)N[C@H](CC(N)=O)Cc1ccccc1)[C@@H](C)CC	NIH 3T3	cytotoxicity				IC50	43.3 µg/mL
CC1(C)[C@H](NC(=O)c2cnn(CCO)c2)C(C)(C)[C@H]1Oc1ccc(C#N)c(Cl)c1	HCC1428	cell growth or viability, CCK-8		7 days		IC50	3.2 µM
CN1CCC(N[C@@H]2CCc3[nH]c4c(C(N)=O)ccc(-c5ccccc5Cl)c4c3C2)CC1	Ramos	cell growth or viability				IC50	0.00234 µM
COC1CN([C@H]2CC[C@H]([C@@]3(C)Oc4c(Cl)cc(C(=O)NCc5c(SC)cc(C)[nH]c5=O)c(C)c4O3)CC2)C1		RNA-seq, item: KIFC3	human, whole blood	dose not given, 24 h	baseline: pretreatment baseline	log2 fold change	2.8
CCN(C(=O)c1cc(F)ccc1Oc1nncnc1N1CCC2(C1)CN(C(CCCN(C)CCOC)C(C)C)C2)C(C)C (stereo not drawn)	MOLM-14	QuantiGene, item: FLT3 mRNA				IC50	> 2.4 µM
O=S(=O)(c1ccc2c(c1)OCO2)n1cc(CCCCN2CCC(=C(c3ccc(F)c(F)c3)c3ccc(F)c(F)c3)CC2)nn1	THP-1	cell growth or viability, ATP luminescence		48 h		IC50	5.02 µM
O=C(N/N=C/c1cc[n+](Cc2ccccc2)c2ccccc12)c1cncc(C(=O)N/N=C/c2cc[n+](Cc3ccccc3)c3ccccc23)n1	MYC parallel G4 DNA	FRET melting		1 µM, DNA 0.2 µM		ΔTm	10.4 ± 0.3 °C
CC(C)c1ccc(N(C)c2ccc3c(c2)OCC[C@H]3CNc2cnccc2C(=O)O)cc1	NCI-H1092	cell growth or viability, ATP luminescence		7 days		IC50	0.00716 µM
NC(=O)c1ccc(-c2ccccc2Cl)c2c3c([nH]c12)CC[C@@H](N)C3	B16F10	cell proliferation		96 h		IC50	0.0209 µM
O=C(N/N=C/c1ccc2c(ccc[n+]2Cc2ccccc2)c1)c1cccc(C(=O)N/N=C/c2ccc3c(ccc[n+]3Cc3ccccc3)c2)c1	MYC parallel G4 DNA	FRET melting		1 µM, DNA 0.2 µM, together with: duplex DNA competitor 10 µM		ΔTm	8.3 ± 0.2 °C

A few entries again:
Compound	target or system	test	test system	conditions	how to read	measurement	value
COc1cc(-c2cn(C)c(=O)c3cnccc23)cc(OC)c1Cn1ccnc1	MOLM-13	cell growth or viability, ATP luminescence				IC50	12.6 µM
CC(C)=CC1OC(C)(C)C2C=C3C(=O)C(Cl)=CC(O)C3C3C(O)C4OC4C(=O)C132 (stereo not drawn)	SU-DHL-1	cell growth or viability, MTS				IC50	1.4 µM
CC(C)(C)c1nc(-c2cccc(NS(=O)(=O)c3c(F)cccc3F)c2F)c(-c2ccnc(N)n2)s1.Cc1[nH]c2ccccc2c1CCNCc1ccc(/C=C/C(=O)NO)cc1	C13	cell growth or viability, crystal violet				IC50	0.0076 µM
CCOc1cncc(-c2ccc(NC(=O)C3(c4ccnc(NS(=O)(=O)C5CC5)n4)CCOCC3)nc2)n1	EOL1	cell proliferation, CellTiter-Glo		72 h		IC50	0.008 µM
C=CC(=O)N1CCCC(n2c(=O)c3ncccc3n(Cc3ccc(Oc4ccccc4)cc3)c2=O)C1 (stereo not drawn)	OCI-Ly18	cell growth or viability, MTT		72 h		IC50	0.1 µM
